Measured values gathered from unrelated publications.
Each numbered part is a random draw from the data of one study; scales do not carry over between parts. Values joined by “and” are separate records of one study, mostly repeats; a detail may differ.
Sequence of UniProt P07333 (whole entry, looked up): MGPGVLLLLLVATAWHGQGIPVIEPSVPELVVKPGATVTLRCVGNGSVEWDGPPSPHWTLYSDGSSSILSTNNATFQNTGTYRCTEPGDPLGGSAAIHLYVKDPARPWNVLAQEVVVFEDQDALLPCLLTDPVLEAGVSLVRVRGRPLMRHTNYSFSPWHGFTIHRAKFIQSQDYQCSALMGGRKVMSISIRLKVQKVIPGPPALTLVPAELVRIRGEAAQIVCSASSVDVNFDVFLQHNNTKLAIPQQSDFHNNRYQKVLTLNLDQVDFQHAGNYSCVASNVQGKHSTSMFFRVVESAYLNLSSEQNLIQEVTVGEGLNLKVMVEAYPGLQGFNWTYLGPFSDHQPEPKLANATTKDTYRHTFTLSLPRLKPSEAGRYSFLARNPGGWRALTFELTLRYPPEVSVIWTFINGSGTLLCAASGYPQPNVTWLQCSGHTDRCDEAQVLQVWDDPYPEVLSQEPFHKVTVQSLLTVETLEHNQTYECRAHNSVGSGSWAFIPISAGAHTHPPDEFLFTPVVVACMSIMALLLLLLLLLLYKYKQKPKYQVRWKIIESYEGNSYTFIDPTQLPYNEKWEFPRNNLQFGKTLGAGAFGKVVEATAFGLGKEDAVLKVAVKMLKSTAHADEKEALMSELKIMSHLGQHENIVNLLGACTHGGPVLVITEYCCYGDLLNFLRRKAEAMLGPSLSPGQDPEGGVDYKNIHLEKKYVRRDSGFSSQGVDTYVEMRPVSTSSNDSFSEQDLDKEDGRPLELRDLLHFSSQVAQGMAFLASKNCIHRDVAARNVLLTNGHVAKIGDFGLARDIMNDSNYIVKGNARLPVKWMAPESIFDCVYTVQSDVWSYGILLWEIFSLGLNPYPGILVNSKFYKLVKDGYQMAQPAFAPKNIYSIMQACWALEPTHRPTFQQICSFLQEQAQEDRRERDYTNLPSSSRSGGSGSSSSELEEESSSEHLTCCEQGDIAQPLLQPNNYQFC
Sequence of UniProt P15056 (whole entry, looked up): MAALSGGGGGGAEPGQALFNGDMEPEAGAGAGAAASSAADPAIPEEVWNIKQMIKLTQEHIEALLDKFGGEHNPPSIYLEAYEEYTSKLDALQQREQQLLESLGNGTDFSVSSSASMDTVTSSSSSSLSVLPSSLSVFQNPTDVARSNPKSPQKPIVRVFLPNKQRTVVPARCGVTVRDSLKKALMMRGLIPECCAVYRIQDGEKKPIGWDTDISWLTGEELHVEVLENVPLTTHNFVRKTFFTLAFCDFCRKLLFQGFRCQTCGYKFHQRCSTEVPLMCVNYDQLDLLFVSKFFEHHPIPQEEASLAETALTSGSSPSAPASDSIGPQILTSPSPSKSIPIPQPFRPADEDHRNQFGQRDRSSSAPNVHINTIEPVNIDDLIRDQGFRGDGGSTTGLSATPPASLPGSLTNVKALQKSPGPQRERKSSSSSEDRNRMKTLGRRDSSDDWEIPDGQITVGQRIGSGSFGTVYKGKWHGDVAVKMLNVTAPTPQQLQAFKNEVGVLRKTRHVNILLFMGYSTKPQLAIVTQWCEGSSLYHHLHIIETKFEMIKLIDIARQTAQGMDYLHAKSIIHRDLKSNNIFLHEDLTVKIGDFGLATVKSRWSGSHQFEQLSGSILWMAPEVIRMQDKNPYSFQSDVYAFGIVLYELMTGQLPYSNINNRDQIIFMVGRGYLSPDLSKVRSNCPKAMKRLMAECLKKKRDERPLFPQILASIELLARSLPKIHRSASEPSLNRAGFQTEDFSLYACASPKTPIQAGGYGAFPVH
Sequence of UniProt P50613 (whole entry, looked up): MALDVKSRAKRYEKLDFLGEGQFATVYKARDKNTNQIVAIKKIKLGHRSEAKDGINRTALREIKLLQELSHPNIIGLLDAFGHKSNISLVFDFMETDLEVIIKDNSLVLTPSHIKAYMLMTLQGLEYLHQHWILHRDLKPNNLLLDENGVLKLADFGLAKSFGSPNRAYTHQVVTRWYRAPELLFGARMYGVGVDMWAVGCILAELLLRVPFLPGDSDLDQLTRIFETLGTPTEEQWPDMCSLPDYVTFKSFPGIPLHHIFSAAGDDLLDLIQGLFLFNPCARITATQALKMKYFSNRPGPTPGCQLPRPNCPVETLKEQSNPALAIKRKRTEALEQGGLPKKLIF
Sequence of UniProt Q12866 (whole entry, looked up): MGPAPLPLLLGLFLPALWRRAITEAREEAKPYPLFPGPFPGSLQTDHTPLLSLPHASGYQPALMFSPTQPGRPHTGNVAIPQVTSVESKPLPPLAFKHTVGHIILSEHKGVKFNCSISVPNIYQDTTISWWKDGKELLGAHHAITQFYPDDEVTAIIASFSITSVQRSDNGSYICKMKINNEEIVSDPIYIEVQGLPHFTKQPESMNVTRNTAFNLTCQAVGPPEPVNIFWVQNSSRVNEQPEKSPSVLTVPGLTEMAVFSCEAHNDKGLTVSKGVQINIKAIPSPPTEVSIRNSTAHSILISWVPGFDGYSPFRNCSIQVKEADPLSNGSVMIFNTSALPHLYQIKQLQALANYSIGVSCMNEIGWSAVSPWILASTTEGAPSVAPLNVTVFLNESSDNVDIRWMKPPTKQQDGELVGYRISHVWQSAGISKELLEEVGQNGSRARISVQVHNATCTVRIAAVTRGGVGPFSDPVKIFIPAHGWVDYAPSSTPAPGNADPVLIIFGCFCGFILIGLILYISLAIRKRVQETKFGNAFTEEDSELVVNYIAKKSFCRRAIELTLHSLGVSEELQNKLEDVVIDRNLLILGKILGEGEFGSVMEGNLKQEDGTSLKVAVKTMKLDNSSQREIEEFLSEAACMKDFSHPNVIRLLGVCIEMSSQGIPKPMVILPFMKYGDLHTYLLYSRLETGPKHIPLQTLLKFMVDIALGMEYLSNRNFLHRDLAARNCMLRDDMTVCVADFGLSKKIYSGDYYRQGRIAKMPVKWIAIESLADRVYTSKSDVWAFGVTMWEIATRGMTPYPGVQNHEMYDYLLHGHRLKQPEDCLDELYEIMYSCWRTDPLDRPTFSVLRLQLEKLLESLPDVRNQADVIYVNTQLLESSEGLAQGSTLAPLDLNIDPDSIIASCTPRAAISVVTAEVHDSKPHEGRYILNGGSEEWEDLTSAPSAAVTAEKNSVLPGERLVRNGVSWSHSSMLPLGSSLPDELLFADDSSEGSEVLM
Sequence of UniProt P42336 (whole entry, unmodified, looked up): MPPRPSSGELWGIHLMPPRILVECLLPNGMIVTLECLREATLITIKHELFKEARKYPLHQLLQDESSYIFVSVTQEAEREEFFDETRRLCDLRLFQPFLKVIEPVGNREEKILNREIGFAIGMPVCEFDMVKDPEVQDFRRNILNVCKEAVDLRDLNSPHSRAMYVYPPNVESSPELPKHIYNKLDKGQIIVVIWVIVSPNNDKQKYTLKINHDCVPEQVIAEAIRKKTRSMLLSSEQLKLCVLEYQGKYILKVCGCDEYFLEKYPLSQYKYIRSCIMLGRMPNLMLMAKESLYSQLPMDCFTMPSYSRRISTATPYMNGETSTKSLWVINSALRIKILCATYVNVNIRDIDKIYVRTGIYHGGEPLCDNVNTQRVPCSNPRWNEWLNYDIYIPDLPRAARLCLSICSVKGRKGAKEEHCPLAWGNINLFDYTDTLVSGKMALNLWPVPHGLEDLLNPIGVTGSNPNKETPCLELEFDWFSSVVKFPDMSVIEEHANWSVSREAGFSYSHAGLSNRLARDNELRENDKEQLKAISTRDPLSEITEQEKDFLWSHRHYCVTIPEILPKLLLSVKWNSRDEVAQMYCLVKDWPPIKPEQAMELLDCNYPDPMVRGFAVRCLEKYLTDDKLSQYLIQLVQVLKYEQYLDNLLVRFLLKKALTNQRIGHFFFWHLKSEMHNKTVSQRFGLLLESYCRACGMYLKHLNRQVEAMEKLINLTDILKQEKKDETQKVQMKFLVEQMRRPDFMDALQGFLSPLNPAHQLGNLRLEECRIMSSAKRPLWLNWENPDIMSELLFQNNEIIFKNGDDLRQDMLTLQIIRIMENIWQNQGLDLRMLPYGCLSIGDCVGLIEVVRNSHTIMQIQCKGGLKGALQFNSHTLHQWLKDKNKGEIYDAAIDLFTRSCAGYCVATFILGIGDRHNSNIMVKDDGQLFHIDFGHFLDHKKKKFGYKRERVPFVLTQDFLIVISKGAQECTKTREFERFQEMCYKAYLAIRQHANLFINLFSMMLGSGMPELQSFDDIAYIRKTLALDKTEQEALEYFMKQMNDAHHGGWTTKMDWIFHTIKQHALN
Sequence of UniProt P25098 (whole entry, looked up): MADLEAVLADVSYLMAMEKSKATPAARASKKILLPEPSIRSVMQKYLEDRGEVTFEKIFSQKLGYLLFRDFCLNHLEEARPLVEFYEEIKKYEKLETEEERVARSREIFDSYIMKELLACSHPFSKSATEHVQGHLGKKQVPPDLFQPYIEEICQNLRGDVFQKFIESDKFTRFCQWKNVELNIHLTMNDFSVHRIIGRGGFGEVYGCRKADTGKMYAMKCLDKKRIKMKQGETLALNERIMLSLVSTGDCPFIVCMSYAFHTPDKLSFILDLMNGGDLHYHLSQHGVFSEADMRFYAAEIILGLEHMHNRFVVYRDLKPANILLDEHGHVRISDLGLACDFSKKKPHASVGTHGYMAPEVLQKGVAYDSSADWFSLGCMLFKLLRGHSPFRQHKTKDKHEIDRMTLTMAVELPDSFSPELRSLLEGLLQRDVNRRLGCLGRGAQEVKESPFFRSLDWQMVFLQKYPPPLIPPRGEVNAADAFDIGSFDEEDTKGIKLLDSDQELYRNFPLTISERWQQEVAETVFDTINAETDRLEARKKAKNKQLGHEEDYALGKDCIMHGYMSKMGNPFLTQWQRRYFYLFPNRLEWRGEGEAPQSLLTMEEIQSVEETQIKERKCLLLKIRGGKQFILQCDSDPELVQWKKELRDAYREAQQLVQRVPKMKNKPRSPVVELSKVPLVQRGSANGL

Block 1 — species: mouse; matrix: microsomes or S9; concentration: 2 µM; time: 0.5 h
Structure (SMILES)	remaining compound [%]
Cc1ccc2oc(=O)n([C@H]3c4cc(Br)cnc4OC(C)(C)[C@@H]3O)c2c1	4.47
Cc1csc(C2=C(N)N(C(C)CCc3ccco3)CC2=O)n1 (stereo not drawn)	2.46
COc1ccc(CC(=O)NCc2csc(C)n2)cc1	48.2
COc1nc(OC)c(C(C)C)c(-c2nnn(C)n2)n1	0.719
O=C(NCCc1c[nH]c2ccccc12)c1c(OCC2CC2)cc(=O)n2c1CCOCC2	22.9

Block 2 — method: competition with immobilised ligand; concentration: 1 µM
Compound: CN(C)CC#Cc1ccc(OCCCc2sc(N3CCc4cccc(C(=O)Nc5nc6ccccc6s5)c4C3)nc2C(=O)O)c(F)c1
target	assay	remaining binding
CSNK1G2 (Homo sapiens, UniProt P78368)	cell-free assay	92%
RET (Homo sapiens, UniProt P07949, V804M)	cell-free assay	98%
TEC (Homo sapiens, UniProt P42680)	binding	97%
BRAF (Homo sapiens, UniProt P15056)	cell-free assay	100%
SRPK3 (Homo sapiens, UniProt Q9UPE1)	cell-free assay	100%
ALK (Homo sapiens, UniProt Q9UM73)	cell-free assay	100%
PIK3CA (Homo sapiens, UniProt P42336, H1047L)	cell-free assay	68%
CSF1R (Homo sapiens, UniProt P07333)	cell-free assay	100%
CDK5 (Homo sapiens, UniProt Q00535)	cell-free assay	100%
FLT3 (Homo sapiens, UniProt P36888, N841I)	cell-free assay	81%
STK35 (Homo sapiens, UniProt Q8TDR2)	cell-free assay	86%
LATS1 (Homo sapiens, UniProt O95835)	cell-free assay	76%
CDK7 (Homo sapiens, UniProt P50613)	cell-free assay	100%
PLK3 (Homo sapiens, UniProt Q9H4B4)	cell-free assay	92%
MAPK4 (Homo sapiens, UniProt P31152)	cell-free assay	89%
Tyrosine-protein kinase ABL1, non-phosphorylated (ABL1, Homo sapiens, UniProt P00519, T315I)	cell-free assay	51%
PKMYT1 (Homo sapiens, UniProt Q99640)	cell-free assay	71%
MERTK (Homo sapiens, UniProt Q12866)	cell-free assay	100%
EPHB3 (Homo sapiens, UniProt P54753)	cell-free assay	100%
GRK2 (Homo sapiens, UniProt P25098)	cell-free assay	100%
PTK6 (Homo sapiens, UniProt Q13882)	cell-free assay	96%
DAPK2 (Homo sapiens, UniProt Q9UIK4)	cell-free assay	90%
GSK3A (Homo sapiens, UniProt P49840)	cell-free assay	89%

Block 3 — method: PRP chromatography estimate; matrix: 1,9-decadiene/PBS; pH: 7.4
Structure (SMILES)	logD
CC(C)C[C@@H]1NC(=O)[C@H](Cc2cscn2)NC(=O)[C@H](C)NC(=O)[C@@H](CC(C)C)NC(=O)[C@@H](CCC(=O)N2CCCC2)NC(=O)[C@H](CC(C)C)NC(=O)[C@@H](CC(C)C)NC1=O	-0.765
CC(C)C[C@@H]1NC(=O)[C@H](CC(C)C)NC(=O)[C@@H](CC(C)C)NC(=O)[C@@H](C(C)C)NC(=O)[C@H](C)NC(=O)[C@H](CC(C)C)NC(=O)[C@@H](CC(C)C)NC1=O	1.37
CC(C)C[C@@H]1NC(=O)[C@@H](C)NC(=O)[C@H](Cc2cscn2)NC(=O)[C@@H](C(C)C)NC(=O)[C@H](C(C)C)NC(=O)[C@H](CC(C)C)NC(=O)[C@@H](CC(C)C)NC1=O	-0.834

Block 4 — cell line: A-375; concentration: 100 µM; time: 18 h
Compound	viability [%]
CC(C)[C@H]1CC[C@H](C(=O)N[C@H](Cc2ccccc2)C(=O)O)CC1	86.7
CC(C)Cc1ccc([C@H](C)C(=O)O)cc1	85.9
CCC(=O)NS(=O)(=O)c1ccc(-c2c(-c3ccccc3)noc2C)cc1	101
CC(C)c1ccc2oc3nc(N)c(C(=O)O)cc3c(=O)c2c1	94.8

Block 5 — cell line: mouse MPNST tumor cells; method: high-content nuclear imaging; refers to: cell number; concentration: 10 µM; time: 12 h; setting: mean of 2 replicates; reference: plate mean; reading: higher = more cells
Structure (SMILES)	nuclei count
NC(C(=O)O)c1cc(O)ccc1Cl (stereo not drawn)	-0.715 z-score
CCOC(=O)C1=C(C)NC(C)=C(C(=O)OC)C1c1cccc([N+](=O)[O-])c1 (stereo not drawn)	0.369 z-score and -0.171 z-score
CC(C)(C)C(=O)C(=Nc1ccc(Cl)cc1)NNc1ccc(Cl)cc1	1.69 z-score
CC(C)[C@H](CO)Nc1nc(Nc2cc(N)cc(Cl)c2)c2ncn(C(C)C)c2n1	-1.89 z-score
CCc1ccc(C=CC(=O)Nc2ccc(C(C)=O)cc2)o1	1.87 z-score

Block 6 — target: panel of 300 human kinases; concentration: 0.5 µM; reading: higher = more selective
SMILES	Gini score
N#CC(=C(N)Sc1ccc(N)cc1)c1ccccc1C(F)(F)F	0.74
COc1cc2c(cc1OC)-c1[nH]nc(Nc3cccc(F)c3)c1C2	0.66
Cc1nc2cc3nc(-c4cccs4)cnc3cc2n1C	0.75
Oc1ccc(Nc2nc(-c3ccc(Cl)cc3)cs2)cc1	0.73
Cc1cn(-c2cc(NC(=O)c3ccc(C)c(Nc4nccc(-c5cccnc5)n4)c3)cc(C(F)(F)F)c2)cn1	0.78

Other studies, line by line
Structure (SMILES)	target or system	assay	test system	setting	quantity	value
CC(C)S(=O)(=O)c1ccc2nccc(Nc3ccc4scnc4c3)c2c1	HT-29	necroptosis	–	together with: TNF-α, Smac mimetic, z-VAD	EC50	7.9 µM
CC(C)n1cnc(-c2ccc(F)cc2)c1-c1ncc(C(=O)Nc2ccc(N3CCN(C)CC3)cc2)[nH]1	–	–	IPF patients	30 mg once daily, adverse event	Constipation incidence	0%
Cl.O=C1[C@H]2CCCC[C@H]2C(=O)N1CCCCN1CCN(c2nsc3ccccc23)CC1	Sarcocystis neurona	–	GFP/FLUC expressing	10 µM, confirmation screen	inhibition	99.3%

A few entries again (block 2):
target	assay	remaining binding
RET (Homo sapiens, UniProt P07949, V804M)	cell-free assay	98%
SRPK3 (Homo sapiens, UniProt Q9UPE1)	cell-free assay	100%
MERTK (Homo sapiens, UniProt Q12866)	cell-free assay	100%
STK35 (Homo sapiens, UniProt Q8TDR2)	cell-free assay	86%
CSF1R (Homo sapiens, UniProt P07333)	cell-free assay	100%
